Measured values gathered from unrelated publications.
“And” joins repeats or separate records; there may be more than shown. ± marks the error that the study gave.
Chain of UniProt P38646 (whole entry, looked up): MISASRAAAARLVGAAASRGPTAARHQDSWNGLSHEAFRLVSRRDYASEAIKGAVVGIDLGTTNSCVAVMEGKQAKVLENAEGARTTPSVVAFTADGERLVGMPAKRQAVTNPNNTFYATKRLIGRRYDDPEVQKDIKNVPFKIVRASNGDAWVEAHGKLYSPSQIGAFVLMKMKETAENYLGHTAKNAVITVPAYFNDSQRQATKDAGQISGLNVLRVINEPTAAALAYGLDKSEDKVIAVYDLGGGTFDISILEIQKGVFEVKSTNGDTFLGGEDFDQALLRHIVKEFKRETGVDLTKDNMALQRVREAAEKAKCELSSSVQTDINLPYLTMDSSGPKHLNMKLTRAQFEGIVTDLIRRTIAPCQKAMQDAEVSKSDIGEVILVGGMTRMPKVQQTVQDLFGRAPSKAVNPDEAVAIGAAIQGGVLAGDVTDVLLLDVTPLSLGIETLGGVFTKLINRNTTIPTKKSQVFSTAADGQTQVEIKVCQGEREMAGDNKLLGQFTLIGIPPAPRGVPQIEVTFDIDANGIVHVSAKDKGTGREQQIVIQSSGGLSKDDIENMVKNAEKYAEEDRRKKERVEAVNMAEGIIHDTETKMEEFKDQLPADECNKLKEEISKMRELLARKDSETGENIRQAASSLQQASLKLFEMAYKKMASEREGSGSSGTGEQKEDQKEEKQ

`Cc1ccc(-c2nc(C[S+]([O-])CC(=O)N3CCN(c4ccc(Cl)cc4)CC3)c(C)o2)cc1` (centres unmarked) gave a maximum response of -17% (Vero-E6; CellTiter-Glo ATP; 72 h, first round 5-point; reference: DMSO 0%, hyamine -100%, more negative, more toxic).
For `O=S(=O)(Nc1ccccc1)c1ccc(NC(=S)Nc2ccccc2)cc1`, the haemoglobin was 13.7 g/dL (female mouse, blood; oral, 80 mg/kg daily, 14 days).
`C/C(=N\C#N)N(C)Cc1ccc(Cl)nc1` gave a recovery of 46% (soil; 0.12 nominal, 0 days, Folsomia candida soil test).
`CCC[C@@](N)(CO)CCc1ccc(OCCCCCC(C)C)cc1` gave a Tmax of 5 h (male hound dog, plasma; oral, 2.5 mg/kg, capsule, median).
Under “adverse event incidence”, `[O-][S+]1CCc2nc(N3CCC(c4ncc(Cl)cn4)CC3)nc(NC3(CO)CCC3)c21` (centres unmarked) is recorded as 25% (refers to: nervous system disorders; healthy male humans; 6 mg twice daily).
`C[C@]1(O)C[C@@](N)(c2ccc(-c3nc4n(c3-c3ccccc3)COc3ccncc3-4)cc2)C1` — result for “patients with Nausea TEAE”: 0% (human, advanced or metastatic solid tumours; 16 mg once daily, phase I dose escalation).
For `CC(C)(O)c1cc(Nc2cc(Oc3cn(C4CC4)nc3C3CCOCC3)ccn2)ccn1`, “treatment-related adverse events” read 0% (Constipation; patients with advanced cancer, grade 4 glioma expansion; oral, 50 mg twice daily, grade ≥3, 2 weeks on/2 weeks off schedule).
Under “free plasma concentration”, `COc1ncccc1-c1cnn2ccc(N3CCN(C(=O)OC(C)C)CC3)nc12` is recorded as 338 nM (mouse, open field test, plasma; oral, 60 mg/kg, 60 min).
`CCN1[C@@H](C(=O)NC23CCC(C(=O)O)(CC2)CC3)[C@H](c2cccc(Cl)c2F)[C@]2(C(=O)Nc3cc(Cl)ccc32)C12CCCCC2` has a Thrombocytopenia incidence of 62.5% (patients with advanced solid tumours; oral, 150 mg).
The Fibrinogen of `CCc1ccc(CC/C=C/c2ccc3c(c2)C(=O)CC3)cc1` is reported as 3.1 g/L (Sprague-Dawley rat, male; oral, 30 mg/kg/day, 14 days).
The maximum response of `CCCCN(CCCC)CCCNC(=O)c1ccc2nc(N3CCCCC3)sc2c1` is reported as -7.19% (Vero-E6; CellTiter-Glo ATP; 72 h, retest 8-point duplicates; reference: DMSO 0%, hyamine -100%, more negative, more toxic).
For `COc1ccc(C[C@@H]2NC(=O)[C@H]([C@@H](C)O)NC(=O)[C@@H]3[C@@H]4CCN3C(=O)[C@@H]3Cc5cn(c6ccc(F)cc56)CCCCCCN(Cc5ccc(cc5)CCNC(=O)[C@]5(C)CCCN5C2=O)C(=O)CCC(=O)N[C@@H](C)C(=O)N[C@H](CNC(=O)CCCCC[N+](C)(C)C)C(=O)N[C@@H](Cc2cccc(c2)CNC(=O)CO4)C(=O)N3)cc1`, “participants with adverse event” read 2% (refers to: Rhinitis; humans; concentration not given, Study-001).
`Cn1ncc(-c2nc(N[C@H]3CC[C@H](N)CC3)ncc2Cl)c1CC1CC1`: “alanine aminotransferase increase incidence” 10% (phase I dose escalation; human patients; dose not given, grade 3 or higher TEAE).
For `C[C@@H]1OC(=O)NN=C1c1ccc(-c2ccc(F)cc2)c(C(F)(F)F)c1`, “patients with adverse event” read 60% (phase I trial, refers to: Fatigue worst grade 1; human patients; dose not given, all dose groups).
Under “patients with serious adverse reactions”, `CC(=O)c1c(C)c2cnc(Nc3ccc(C4CCN(CCS(C)(=O)=O)CC4)cn3)nc2n(C2CCCC2)c1=O` is recorded as 0% (HR+/HER2- advanced breast cancer patients; oral, 50 mg, dose escalation).
With `Clc1nc[n]([Au][PH](c2ccccc2)(c2ccccc2)c2ccccc2)c1Cl` the body weight was 22.1 g and 22.2 g (NCG mice; intraperitoneal, 10 mg/kg single dose, 24 h).
`COc1cc2c(Oc3ccc4[nH]c(C)cc4c3F)ccnc2cc1OCC1(N)CC1` — result for “grade 3 Hyperuricemia”: 0% (paediatric recurrent refractory sarcoma; concentration not given, whole group).
Under “peripheral oedema TEAE incidence”, `N[C@@H]1c2ccccc2OC12CCN(c1cnc3c(N4CCCc5ncccc54)n[nH]c3n1)CC2` is recorded as 56% (patients advanced metastatic solid tumours; oral, 60 mg once daily, pooled cohort).
`C[C@]1(CO)Cc2ncn(-c3ccc(C#N)c(Cl)c3)c2C(=O)O1` — result for “drug-related Dizziness incidence”: 0% (healthy humans; concentration not given, food-effect part total).
`Cn1cc(-c2nc(N[C@@H]3CCCC[C@@H]3N)c(F)c3c2C(=O)NC3)cn1` — result for “hemorrhagic adverse events”: 13% (refers to: Hematuria; patients with relapsed or refractory AML; oral, 60 mg twice daily).
Under “treatment-related adverse event incidence”, `COc1ccc(-c2c(-c3ccc(C#N)c(F)c3)nc(N3CCC(N)CC3)n(C)c2=O)cc1F` is recorded as 4% (refers to: Nausea; human patients; oral, dose not given, any grade, dose escalation, NG).
`CC(C)N(CCc1c[nH]c2cccc(OC(=O)CCCC(=O)O)c12)C(C)C.Cl` — result for “volume of distribution”: 8.61 L (male beagle dog, plasma; intravenous, 1 mg/kg).
Under “micronucleated PCE per 1000 PCE”, `COC[C@@H](CC(C)C)NC(=O)c1ccc(C)c(C)c1` is recorded as 0.5 (Hsd:ICR (CD-1) mouse, female, bone marrow; oral, 1352 mg/kg, 48 h).
For `C[C@H]1N=C(c2ccccc2F)c2cc(Br)ccc2-n2cnc(C(=O)O[C@@H]3O[C@H](C(=O)O)[C@@H](O)[C@H](O)[C@H]3O)c21`, the half-life was 0.362 h (mice, blood; oral gavage, 100 mg/kg).
Under “all-cause adverse events”, `Cc1cccc(Cn2nc(C3CC3)c3c(NC(=O)c4cnc5cc(OCCN6CCN(C)CC6)ccn45)cccc32)n1` is recorded as 25.9% (CTCAE v4.03, refers to: abdominal pain; pancreatic ductal adenocarcinoma patients; oral, dose not given, together with: pembrolizumab IV every 3 weeks).
`CC(C)[C@@H]1NC(=O)CNC(=O)[C@H](CC(N)=O)NC(=O)[C@H](CCCNC(=N)N)NC(=O)[C@H](Cc2ccc(O)cc2)NC(=O)[C@H](C(C)C)NC(=O)[C@@H](NC(=O)[C@@H](NC(=O)[C@H](CC(N)=O)NC(=O)[C@H](Cc2c[nH]c3ccccc23)NC(=O)[C@H](C)NC(=O)[C@H](Cc2ccccc2)NC(=O)CN)C(C)C)CSSC[C@@H](C(=O)N[C@@H](Cc2cnc[nH]2)C(=O)N[C@@H](CCCNC(=N)N)C(=O)N[C@@H](CCCNC(=N)N)C(=O)N[C@@H](C)C(=O)N[C@@H](CC(N)=O)C(N)=O)NC(=O)[C@H](C(C)C)NC(=O)[C@H](CCCNC(=N)N)NC1=O` has an eosinophils of 2.11 ± 0.16% (ICR mouse, blood; intramammary, 5 mg/kg, day 5, 3 d dosing).
`CCCCCCCCCCCCCCCC(=O)N[C@@H](CCC(=O)NCCCC[C@H](NC(=O)[C@H](CC(=O)O)NC(=O)[C@H](CO)NC(=O)[C@@H](NC(=O)[C@H](Cc1ccccc1)NC(=O)[C@@H](NC(=O)CNC(=O)[C@H](CCC(N)=O)NC(=O)[C@H](CO)NC(=O)[C@@H](N)Cc1c[nH]cn1)[C@@H](C)O)[C@@H](C)O)C(=O)N[C@@H](CO)C(=O)N[C@@H](CCC(=O)O)C(=O)N[C@@H](Cc1ccc(O)cc1)C(=O)N[C@@H](CC(C)C)C(=O)N[C@@H](CC(=O)O)C(=O)N[C@@H](CO)C(=O)N[C@@H](CCC(=O)O)C(=O)N[C@@H](CCCNC(=N)N)C(=O)N[C@@H](C)C(=O)N[C@@H](CCCNC(=N)N)C(=O)N[C@@H](CC(=O)O)C(=O)N[C@@H](Cc1ccccc1)C(=O)N[C@H](C(=O)N[C@@H](C)C(=O)N[C@@H](Cc1c[nH]c2ccccc12)C(=O)N[C@@H](CC(C)C)C(=O)N[C@@H](CCC(=O)O)C(=O)N[C@@H](C)C(=O)NCC(=O)NCC(=O)O)C(C)C)C(=O)O` — result for “injection site bruising”: 0% (human, CrCl ≥20 to <30 mL/min; sc, 100 µg single dose).
`CO[C@H]1C[C@@H]2CC[C@@H](C)[C@@](O)(O2)C(=O)C(=O)N2CCCC[C@H]2C(=O)O[C@H]([C@H](C)C[C@@H]2CC[C@@H](OC(=O)NCCOCCOCCOCCOCCOCCOCCOCCOCCC(=O)N3CCc4cc(Cn5nc(-c6ccc7oc(N)nc7c6)c6c(N)ncnc65)ccc4C3)[C@H](OC)C2)C[C@@H](O)[C@H](C)/C=C(\C)[C@@H](O)[C@@H](OC)C(=O)[C@H](C)C[C@H](C)/C=C/C=C/C=C/1C` — result for “decreased appetite TEAE incidence”: 1.8% (dose-escalation trial; patients with advanced solid tumours; intravenous, all doses weekly, grade ≥3).
`C[C@H]1CN(c2n[nH]c3nc(N[C@H]4CC[C@H](NS(=O)(=O)CCC(F)(F)F)CC4)ncc23)CCO1` gave a relative abundance of 1.16 (HSPA9 (Homo sapiens, UniProt P38646); inhibitor, Kinobeads competition profiling; 0.8 µM; reference: vehicle).

Repeated from above:
`CCCCCCCCCCCCCCCC(=O)N[C@@H](CCC(=O)NCCCC[C@H](NC(=O)[C@H](CC(=O)O)NC(=O)[C@H](CO)NC(=O)[C@@H](NC(=O)[C@H](Cc1ccccc1)NC(=O)[C@@H](NC(=O)CNC(=O)[C@H](CCC(N)=O)NC(=O)[C@H](CO)NC(=O)[C@@H](N)Cc1c[nH]cn1)[C@@H](C)O)[C@@H](C)O)C(=O)N[C@@H](CO)C(=O)N[C@@H](CCC(=O)O)C(=O)N[C@@H](Cc1ccc(O)cc1)C(=O)N[C@@H](CC(C)C)C(=O)N[C@@H](CC(=O)O)C(=O)N[C@@H](CO)C(=O)N[C@@H](CCC(=O)O)C(=O)N[C@@H](CCCNC(=N)N)C(=O)N[C@@H](C)C(=O)N[C@@H](CCCNC(=N)N)C(=O)N[C@@H](CC(=O)O)C(=O)N[C@@H](Cc1ccccc1)C(=O)N[C@H](C(=O)N[C@@H](C)C(=O)N[C@@H](Cc1c[nH]c2ccccc12)C(=O)N[C@@H](CC(C)C)C(=O)N[C@@H](CCC(=O)O)C(=O)N[C@@H](C)C(=O)NCC(=O)NCC(=O)O)C(C)C)C(=O)O` — result for “injection site bruising”: 0% (human, CrCl ≥20 to <30 mL/min; sc, 100 µg single dose).
`CO[C@H]1C[C@@H]2CC[C@@H](C)[C@@](O)(O2)C(=O)C(=O)N2CCCC[C@H]2C(=O)O[C@H]([C@H](C)C[C@@H]2CC[C@@H](OC(=O)NCCOCCOCCOCCOCCOCCOCCOCCOCCC(=O)N3CCc4cc(Cn5nc(-c6ccc7oc(N)nc7c6)c6c(N)ncnc65)ccc4C3)[C@H](OC)C2)C[C@@H](O)[C@H](C)/C=C(\C)[C@@H](O)[C@@H](OC)C(=O)[C@H](C)C[C@H](C)/C=C/C=C/C=C/1C` — result for “decreased appetite TEAE incidence”: 1.8% (dose-escalation trial; patients with advanced solid tumours; intravenous, all doses weekly, grade ≥3).
`C[C@H]1CN(c2n[nH]c3nc(N[C@H]4CC[C@H](NS(=O)(=O)CCC(F)(F)F)CC4)ncc23)CCO1` gave a relative abundance of 1.16 (HSPA9 (Homo sapiens, UniProt P38646); inhibitor, Kinobeads competition profiling; 0.8 µM; reference: vehicle).
